Experimental data collected from several papers.
Compare with care: the assays were run in different laboratories. ± marks the error that the study gave.
ESR2: Estrogen receptor beta (ESR2, Homo sapiens, UniProt Q92731)
Sequence of UniProt Q92731 (whole entry, looked up): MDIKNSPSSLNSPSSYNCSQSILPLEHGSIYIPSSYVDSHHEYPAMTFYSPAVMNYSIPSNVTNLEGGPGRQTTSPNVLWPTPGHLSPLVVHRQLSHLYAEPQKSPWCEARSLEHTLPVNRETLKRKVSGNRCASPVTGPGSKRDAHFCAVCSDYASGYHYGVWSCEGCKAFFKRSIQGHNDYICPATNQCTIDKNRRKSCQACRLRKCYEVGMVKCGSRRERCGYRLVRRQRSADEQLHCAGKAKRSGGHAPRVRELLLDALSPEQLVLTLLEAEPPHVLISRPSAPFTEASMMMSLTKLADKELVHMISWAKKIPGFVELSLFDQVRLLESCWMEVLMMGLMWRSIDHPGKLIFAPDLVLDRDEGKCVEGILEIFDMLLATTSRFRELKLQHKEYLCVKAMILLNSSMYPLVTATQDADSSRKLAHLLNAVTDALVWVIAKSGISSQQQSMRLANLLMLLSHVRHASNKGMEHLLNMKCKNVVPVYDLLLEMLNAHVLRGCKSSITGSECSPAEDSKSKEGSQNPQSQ
Sequence of UniProt O43353 (whole entry, looked up): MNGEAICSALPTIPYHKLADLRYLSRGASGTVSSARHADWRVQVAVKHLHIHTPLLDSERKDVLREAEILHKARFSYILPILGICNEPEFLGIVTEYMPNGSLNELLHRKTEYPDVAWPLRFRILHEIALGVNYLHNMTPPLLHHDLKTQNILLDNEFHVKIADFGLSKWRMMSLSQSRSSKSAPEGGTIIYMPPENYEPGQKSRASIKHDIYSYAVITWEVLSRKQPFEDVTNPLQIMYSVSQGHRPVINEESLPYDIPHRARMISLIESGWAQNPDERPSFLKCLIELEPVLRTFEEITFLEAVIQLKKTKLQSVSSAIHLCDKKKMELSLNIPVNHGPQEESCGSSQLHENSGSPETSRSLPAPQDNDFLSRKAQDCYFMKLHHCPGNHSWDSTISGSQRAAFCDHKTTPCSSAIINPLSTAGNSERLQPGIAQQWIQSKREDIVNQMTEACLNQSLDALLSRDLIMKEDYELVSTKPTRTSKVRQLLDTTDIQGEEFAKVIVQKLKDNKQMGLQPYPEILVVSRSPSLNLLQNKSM
Sequence of UniProt P48995 (whole entry, looked up): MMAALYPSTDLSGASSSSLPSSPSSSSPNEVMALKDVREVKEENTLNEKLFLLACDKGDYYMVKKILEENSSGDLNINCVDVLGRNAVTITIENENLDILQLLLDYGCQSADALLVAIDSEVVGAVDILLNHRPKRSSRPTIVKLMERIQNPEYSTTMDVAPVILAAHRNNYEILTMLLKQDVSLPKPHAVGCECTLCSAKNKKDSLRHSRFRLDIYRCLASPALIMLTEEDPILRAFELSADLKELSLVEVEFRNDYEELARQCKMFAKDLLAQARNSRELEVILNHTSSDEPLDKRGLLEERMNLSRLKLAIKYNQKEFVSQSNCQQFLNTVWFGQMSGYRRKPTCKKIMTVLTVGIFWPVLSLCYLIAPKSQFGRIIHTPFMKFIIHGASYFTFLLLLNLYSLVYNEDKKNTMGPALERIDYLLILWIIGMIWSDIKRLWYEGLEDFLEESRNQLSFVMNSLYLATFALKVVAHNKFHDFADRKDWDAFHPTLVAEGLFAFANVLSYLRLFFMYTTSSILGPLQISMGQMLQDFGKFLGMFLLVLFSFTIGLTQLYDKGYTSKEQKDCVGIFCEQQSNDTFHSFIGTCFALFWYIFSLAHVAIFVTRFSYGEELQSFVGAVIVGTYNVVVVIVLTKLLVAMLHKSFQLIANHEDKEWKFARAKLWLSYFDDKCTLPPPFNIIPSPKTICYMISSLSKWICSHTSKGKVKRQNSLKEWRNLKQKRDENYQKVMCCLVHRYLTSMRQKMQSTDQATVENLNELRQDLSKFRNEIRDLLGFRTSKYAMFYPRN
Sequence of UniProt A0AVT1 (whole entry, looked up): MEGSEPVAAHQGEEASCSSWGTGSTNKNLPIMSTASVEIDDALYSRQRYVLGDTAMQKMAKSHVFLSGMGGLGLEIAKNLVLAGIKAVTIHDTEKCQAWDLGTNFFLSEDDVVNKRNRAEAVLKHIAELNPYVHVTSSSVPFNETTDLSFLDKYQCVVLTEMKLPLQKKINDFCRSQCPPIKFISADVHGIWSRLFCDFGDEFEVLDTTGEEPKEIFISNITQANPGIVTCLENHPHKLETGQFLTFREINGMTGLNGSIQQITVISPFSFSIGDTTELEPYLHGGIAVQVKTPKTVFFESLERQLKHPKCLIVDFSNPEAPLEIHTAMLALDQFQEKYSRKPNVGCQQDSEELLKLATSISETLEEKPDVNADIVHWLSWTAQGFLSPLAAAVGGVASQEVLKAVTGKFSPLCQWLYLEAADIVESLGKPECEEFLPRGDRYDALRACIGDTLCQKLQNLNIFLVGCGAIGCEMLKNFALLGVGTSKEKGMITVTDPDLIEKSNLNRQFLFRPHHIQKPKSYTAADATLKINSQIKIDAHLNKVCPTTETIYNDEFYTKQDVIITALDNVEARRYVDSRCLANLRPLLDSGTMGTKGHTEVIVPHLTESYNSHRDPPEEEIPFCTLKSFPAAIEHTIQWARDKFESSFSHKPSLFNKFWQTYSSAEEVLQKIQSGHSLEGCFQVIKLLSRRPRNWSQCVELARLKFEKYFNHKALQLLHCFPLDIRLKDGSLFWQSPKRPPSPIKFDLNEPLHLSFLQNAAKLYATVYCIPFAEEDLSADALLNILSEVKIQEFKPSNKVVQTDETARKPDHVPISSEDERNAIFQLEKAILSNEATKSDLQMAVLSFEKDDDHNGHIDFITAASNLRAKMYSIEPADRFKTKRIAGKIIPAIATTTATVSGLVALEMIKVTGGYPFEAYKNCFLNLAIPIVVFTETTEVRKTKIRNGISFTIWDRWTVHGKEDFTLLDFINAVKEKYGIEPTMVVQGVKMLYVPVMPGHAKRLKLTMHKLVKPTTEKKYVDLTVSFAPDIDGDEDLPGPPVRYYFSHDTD
Sequence of UniProt Q93009 (whole entry, looked up): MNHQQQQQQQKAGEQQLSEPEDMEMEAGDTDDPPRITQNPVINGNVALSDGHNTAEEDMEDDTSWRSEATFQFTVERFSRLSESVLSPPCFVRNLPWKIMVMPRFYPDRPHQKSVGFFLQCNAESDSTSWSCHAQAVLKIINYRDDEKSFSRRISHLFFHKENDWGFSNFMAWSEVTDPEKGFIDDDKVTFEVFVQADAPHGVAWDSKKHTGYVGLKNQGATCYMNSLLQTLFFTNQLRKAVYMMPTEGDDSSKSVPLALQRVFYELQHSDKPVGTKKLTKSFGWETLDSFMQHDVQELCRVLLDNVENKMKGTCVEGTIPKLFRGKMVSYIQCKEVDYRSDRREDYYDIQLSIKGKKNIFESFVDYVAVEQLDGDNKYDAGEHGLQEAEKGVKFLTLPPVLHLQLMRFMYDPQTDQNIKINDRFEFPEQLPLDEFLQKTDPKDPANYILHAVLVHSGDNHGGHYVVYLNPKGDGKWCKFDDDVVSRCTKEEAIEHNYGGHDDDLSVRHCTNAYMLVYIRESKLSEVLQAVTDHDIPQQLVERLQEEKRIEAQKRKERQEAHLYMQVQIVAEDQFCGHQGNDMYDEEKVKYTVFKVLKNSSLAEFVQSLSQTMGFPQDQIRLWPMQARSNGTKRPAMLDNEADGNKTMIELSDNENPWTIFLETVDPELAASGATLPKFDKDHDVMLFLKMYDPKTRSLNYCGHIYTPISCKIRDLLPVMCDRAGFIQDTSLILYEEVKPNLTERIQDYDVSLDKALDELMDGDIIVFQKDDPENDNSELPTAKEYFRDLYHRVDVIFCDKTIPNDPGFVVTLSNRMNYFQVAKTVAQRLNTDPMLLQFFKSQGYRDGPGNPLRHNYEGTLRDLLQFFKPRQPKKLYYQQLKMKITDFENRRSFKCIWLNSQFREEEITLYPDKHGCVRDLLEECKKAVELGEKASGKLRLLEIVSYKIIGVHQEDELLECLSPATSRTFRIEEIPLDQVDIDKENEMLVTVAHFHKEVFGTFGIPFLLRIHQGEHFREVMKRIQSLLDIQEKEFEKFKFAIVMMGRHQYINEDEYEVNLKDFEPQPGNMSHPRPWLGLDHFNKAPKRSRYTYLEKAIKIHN
Sequence of UniProt P00921 (whole entry, looked up): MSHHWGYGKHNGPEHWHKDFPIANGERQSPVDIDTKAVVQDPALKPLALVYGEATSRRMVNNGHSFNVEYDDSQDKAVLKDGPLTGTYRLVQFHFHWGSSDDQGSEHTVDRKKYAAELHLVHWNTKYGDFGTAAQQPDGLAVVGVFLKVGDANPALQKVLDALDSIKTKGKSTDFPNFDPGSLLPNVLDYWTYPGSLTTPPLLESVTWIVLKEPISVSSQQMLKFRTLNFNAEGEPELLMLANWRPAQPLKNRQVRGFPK
Sequence of UniProt Q9Y3Z3 (whole entry, looked up): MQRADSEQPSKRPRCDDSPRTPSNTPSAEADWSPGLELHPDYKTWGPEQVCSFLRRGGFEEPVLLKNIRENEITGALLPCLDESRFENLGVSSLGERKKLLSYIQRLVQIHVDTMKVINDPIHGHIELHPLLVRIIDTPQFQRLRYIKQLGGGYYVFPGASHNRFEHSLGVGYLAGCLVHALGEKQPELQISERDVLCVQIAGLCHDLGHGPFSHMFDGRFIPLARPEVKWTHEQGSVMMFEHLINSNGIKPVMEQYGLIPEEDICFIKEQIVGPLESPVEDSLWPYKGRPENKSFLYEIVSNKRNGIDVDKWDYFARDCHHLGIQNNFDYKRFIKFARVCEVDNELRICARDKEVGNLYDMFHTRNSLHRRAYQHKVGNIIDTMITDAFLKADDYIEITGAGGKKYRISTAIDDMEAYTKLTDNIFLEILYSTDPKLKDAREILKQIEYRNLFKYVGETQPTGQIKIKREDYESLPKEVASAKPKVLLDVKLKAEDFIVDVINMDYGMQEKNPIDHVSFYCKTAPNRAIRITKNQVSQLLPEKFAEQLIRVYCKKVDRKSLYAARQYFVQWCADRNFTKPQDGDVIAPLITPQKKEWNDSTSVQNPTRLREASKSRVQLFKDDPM

SMILES	target	assay	system	conditions	IC50
O=C(Nc1ccc(Cl)cc1)c1cccc(S(=O)(=O)NC2CC2)c1	Ectonucleoside triphosphate diphosphohydrolase 8 (Homo sapiens, UniProt Q5MY95)	enzyme activity, inhibitor, absorbance	–	–	1.78 µM
O=S(=O)(Oc1ccc(Br)cc1)C1CC2OC1C(c1ccc(O)cc1)=C2c1ccc(O)cc1 (racemic)	ESR2	reporter gene, antagonist, ERE luciferase reporter	HepG2 transfected with ERβ	added: estradiol 1 µM	> 10 µM
CC[C@H](C)[C@@H]1NC(=O)[C@H](Cc2c[nH]c3ccccc23)NC(=O)[C@H](C)NC(=O)c2cc3cc(c2)C(=O)NC[C@@H](C(=O)NCCC(=O)NCCC(=O)N[C@@H](CCCCN)C(N)=O)NC(=O)[C@H](CCCNC(=N)N)NC(=O)[C@@H](CCCNC(=N)N)NC(=O)[C@H](CCCNC(=N)N)NC(=O)[C@H](Cc2ccc4ccccc4c2)NC(=O)[C@H](Cc2ccccc2)NC(=O)[C@H](CNC3=O)NC(=O)[C@H](C)NC(=O)[C@H](Cc2ccc(O)cc2)NC1=O	NF-kappa-B essential modulator, with IKK-beta (IKBKG, Homo sapiens, UniProt Q9Y6K9)	inhibitor, HTRF	–	–	1.2 ± 0.2 µM
Nc1nc2c(ncn2C2CC(O)C(COP(=O)(O)OCC3OC(n4cnc5c(N)ncnc54)CC3O)O2)c(=O)[nH]1 (stereo not drawn)	SAMHD1 (Homo sapiens, UniProt Q9Y3Z3)	enzyme activity, inhibitor, absorbance	–	–	102 µM
CC(=O)NCCO[C@H]1[C@H](O)[C@@H](O)[C@@H]2O[C@@H]2[C@@H]1C(=O)O	Beta-glucuronidase (uidA, Escherichia coli, UniProt P05804)	enzyme activity, inhibitor, fluorescence	–	pH 5, with preincubation	> 100 µM
COc1ccc(SCC(=O)c2ccc(O)cc2O)cc1	ESR2	coactivator recruitment, antagonist	–	–	5.48 µM
C[C@@]12CC[C@@H]3c4cc(Br)c(O)c(Br)c4CC[C@H]3[C@@H]1CCC2=O	AKR1C2 (Homo sapiens, UniProt P52895)	enzyme activity, inhibitor, absorbance	–	pH 9	7.3 µM
CCCC[C@H](NC(C)=O)C(=O)N[C@@H](CO)C(=O)N[C@H](C(=O)N1CCC[C@H]1C(=O)N[C@]1(C)CCCCCCC=CCCC[C@@](C)(C(=O)N[C@@H](Cc2ccccc2)C(=O)N[C@@H](CCCCN)C(=O)N[C@@H](CCCNC(=N)N)C(=O)N[C@@H](CC(C)C)C(=O)N[C@@H](CCC(N)=O)C(N)=O)NC(=O)[C@H](CCCNC(=N)N)NC(=O)[C@H](CCCC)NC(=O)[C@H](CC(C)C)NC(=O)[C@H](CCCNC(=N)N)NC(=O)[C@H](CCCNC(=N)N)NC(=O)[C@H](CCCNC(=N)N)NC1=O)[C@@H](C)O	UBA6 (Homo sapiens, UniProt A0AVT1)	enzyme activity, inhibitor	–	–	0.42 µM
C[C@@H](O)[C@H](NC(=O)CP(=O)(O)OC[C@H]1O[C@@H](n2cnc3c(N)ncnc32)[C@H](O)[C@@H]1O)C(=O)O	Threonylcarbamoyl-AMP synthase (tsaC, Escherichia coli, UniProt P45748)	TC-AMP formation, inhibitor	–	added: ATP 1.2 mM, L-threonine 1.8 mM	> 180 µM
Cn1c(-c2ccccc2)ccc1-c1nc(-c2ncc(Br)cn2)no1	Programmed cell death 1 ligand 1, with PD-1 (CD274, Homo sapiens, UniProt Q9NZQ7)	PD-1/PD-L1 binding, inhibitor, TR-FRET	–	room temperature	2.6 µM
CCCCC[C@H](O)/C=C/[C@H]1[C@H](O)CC(=O)[C@@H]1C/C=C\CCCC(=O)O	SLCO2A1 (Homo sapiens, UniProt Q92959, S346F)	–	–	5 (unit not given), pH 6	15.4 ± 3.22 µM
Cc1ccc2oc(-c3c4c(N)n[nH]c(=O)c4nn3-c3ccc(NC(=O)/C=C/CN(C)C)cc3)c(C)c2c1	CDK4 (Homo sapiens, UniProt P11802)	enzyme activity, inhibitor	–	–	> 1 µM
N#Cc1ccc(N(Cc2ccc(OS(N)(=O)=O)c(F)c2F)n2cnnc2)cc1	Steryl-sulfatase (STS, Homo sapiens, UniProt P08842)	enzyme activity, inhibitor	JEG-3 intact monolayers	–	0.01 to 0.1 µM
CNC(=O)C1CCN(c2ccccc2NC(=O)c2ccc(-c3c(C)ccc4[nH]ncc34)c(C)c2)CC1	FGR (Homo sapiens, UniProt P09769)	target engagement in cells, BRET	–	–	5.67 µM
Cc1cc(OCC(=O)N2CCN(c3ccc(F)cc3)CC2)c2c(C)c(C)c(=O)oc2c1	gyrB (Escherichia coli, UniProt P0AES6)	enzyme activity, inhibitor	–	–	16.2 ± 0.4 µM
CC(=O)OCCN(c1ccccc1Oc1ccc(C(F)(F)F)cc1)S(=O)(=O)c1ccc(N)cc1	ESRRA (Homo sapiens, UniProt P11474)	transcriptional activity, inhibitor, mammalian two-hybrid reporter	HEK293T	48 h, GAL4-LBD fusion	1.66 µM
CCOC(=O)c1ccc2c(c1)n(CC)[c]([Au-][Cl])[n+]2CC	trxB (Escherichia coli, UniProt P0A9P4)	enzyme activity, inhibitor, absorbance	–	with preincubation	0.45 µM

SMILES	target	assay	system	conditions	IC50
N[C@@H](CCC(=O)N[C@@H](CS[Se]Cc1ccc(-c2cccc(C(O)c3ccc(Cl)c(Cl)c3)c2)cc1)C(=O)NCC(=O)O)C(=O)O (stereo partly drawn)	ACP1 (Homo sapiens, UniProt P24666)	enzyme activity, inhibitor	–	added: pNPP, GSH 1 mM	12 ± 3 µM
Oc1c(C(Nc2nc3ccccc3s2)c2cccc(OCc3ccccc3)c2)ccc2cccnc12 (stereo not drawn)	Genome polyprotein, protease (Dengue virus type 2, UniProt P14340)	enzyme activity, inhibitor, fluorescence	–	–	1.29 µM
Cc1cc(N2CC[C@@](C#N)(C3(C)CC3)C2=O)cc(C(=O)NCc2cc(F)cc(-c3cnn(C)c3)c2)n1	NR3C1 (Homo sapiens, UniProt P04150)	cell-free assay	–	–	> 10 µM
COc1cc(CCC(O)CC(O)CCc2ccc(O)cc2)ccc1O (stereo not drawn)	PNLIP (Sus scrofa, UniProt P00591)	enzyme activity, inhibitor, absorbance	–	–	175 µM
CCCn1c(=O)c2[nH]c(-c3ccc(OCC(=O)NCCNC(=O)CCCCCNC(=O)COc4ccc(/C=C/C5=[N+]6C(=Cc7ccc(-c8cccs8)n7[B-]6(F)F)C=C5)cc4)cc3)nc2n(CCC)c1=O	ADORA1 (Homo sapiens, UniProt P30542)	ligand displacement in cells, radioligand	–	–	0.0525 µM
CC(=O)OC[C@H]1O[C@@H](Sc2sc(C(=O)c3ccc(Br)cc3)c(N)c2-c2nc3ccccc3s2)[C@H](OC(C)=O)[C@@H](OC(C)=O)[C@@H]1OC(C)=O	USP7 (Homo sapiens, UniProt Q93009)	–	–	–	9.88 µM
CC[C@H](C)[C@H](NC(=O)[C@H](CC(N)=O)NC(=O)[C@@H](NC(=O)[C@H](Cc1c[nH]cn1)NC(=O)[C@H](CCCNC(=N)N)NC(=O)[C@@H](N)[C@@H](C)O)C(C)C)C(=O)N[C@@H](CC(C)C)C(=O)N[C@@H](CC(C)C)C(=O)N[C@@H](Cc1ccccc1)C(=O)N[C@@H](CCSC)C(=O)O	Serine/threonine-protein kinase B-raf, phosphorylated (BRAF, Homo sapiens, UniProt P15056, G469A)	enzyme activity, inhibitor, ELISA	–	–	0.003 to 0.419 µM
Oc1ccc([C@H]2Oc3cc(O)cc(O)c3[C@H](c3c(O)cc(O)c4c3O[C@H](c3ccc(O)c(O)c3)[C@@H](O)[C@@H]4c3c(O)cc(O)c4c3O[C@H](c3ccc(O)c(O)c3)[C@H](O)C4)[C@H]2O)cc1	alpha-glucosidase (Bacillus stearothermophilus)	inhibitor	–	20 min, pH 6.8, 60 °C, added: pNPG substrate	4.5 ± 0.7 µM
COc1cc(O)ccc1CC[C@@H](c1ccc(O)cc1)c1cc2c(c(C)c1O)O[C@@H](c1ccc(O)cc1)CC2	ALOX5 (Homo sapiens, UniProt P09917)	enzyme activity, inhibitor	–	–	0.7 µM
O=[N+]([O-])c1ccc(-c2cs/c(=N/N=C/c3ccc(N4CCOCC4)cc3)n2-c2ccccc2)cc1	CA2 (Bos taurus, UniProt P00921)	enzyme activity, inhibitor, absorbance	–	–	16.2 µM
C1=C(c2cc3c(Nc4ccc5scnc5c4)ncnc3s2)CCSC1	RIPK2 (Homo sapiens, UniProt O43353)	enzyme activity, inhibitor	–	–	0.023 µM
C#CC(=O)Nc1ccc2nc(NCCCCCN(C)C)nc(NCCCCCCN(C)C)c2c1	SETDB1 (Homo sapiens, UniProt Q15047)	enzyme activity, inhibitor	–	–	6.77 µM
O=C1C[C@H](c2ccc(O)c(O)c2)c2c(cc(O)c3c2O[C@H](c2ccc(O)c(O)c2)[C@H](O)C3)O1	α-glucosidase (Saccharomyces cerevisiae)	inhibitor	–	added: pNPG	11.9 ± 1.41 µg/mL
CC(=O)C1=C(C)NC(=O)NC1c1ccc(F)cc1F (stereo not drawn)	AMY2 (Sus scrofa, UniProt P00690)	enzyme activity, inhibitor	–	–	282 µM
O=C(/C=C/c1ccc2ccccc2c1)NO	hdac10 (Danio rerio, UniProt F1QCV2)	–	–	–	0.273 ± 0.058 µM
C#CCOc1cccc(Oc2nc3c(c(=O)n(CCCO)c(=O)n3C)n2Cc2ccc(C3(C(F)(F)F)N=N3)cc2)c1	TRPC1/TRPC5 (TRPC1/TRPC5, Homo sapiens, UniProt P48995+Q9UL62)	calcium influx, inhibitor, Fura-2	HEK T-REx expressing TRPC1/TRPC5	added: englerin A 30 nM	0.0062 µM

Some of these lines once more:
SMILES	target	assay	system	conditions	IC50
C[C@@]12CC[C@@H]3c4cc(Br)c(O)c(Br)c4CC[C@H]3[C@@H]1CCC2=O	AKR1C2 (Homo sapiens, UniProt P52895)	enzyme activity, inhibitor, absorbance	–	pH 9	7.3 µM
CCCC[C@H](NC(C)=O)C(=O)N[C@@H](CO)C(=O)N[C@H](C(=O)N1CCC[C@H]1C(=O)N[C@]1(C)CCCCCCC=CCCC[C@@](C)(C(=O)N[C@@H](Cc2ccccc2)C(=O)N[C@@H](CCCCN)C(=O)N[C@@H](CCCNC(=N)N)C(=O)N[C@@H](CC(C)C)C(=O)N[C@@H](CCC(N)=O)C(N)=O)NC(=O)[C@H](CCCNC(=N)N)NC(=O)[C@H](CCCC)NC(=O)[C@H](CC(C)C)NC(=O)[C@H](CCCNC(=N)N)NC(=O)[C@H](CCCNC(=N)N)NC(=O)[C@H](CCCNC(=N)N)NC1=O)[C@@H](C)O	UBA6 (Homo sapiens, UniProt A0AVT1)	enzyme activity, inhibitor	–	–	0.42 µM
